Published values gathered from unrelated publications.
Each numbered part is a random draw from the data of one study; scales do not carry over between parts. Changes are numbered by the printed parent chain.

Study 1
Target: RING finger protein unkempt homolog, zinc fingers 1-6, GST-SBP tag (UNK, Homo sapiens, UniProt Q9C0B0, residues 30-357)
UniProt Q9C0B0, sequence (30-357, looked up): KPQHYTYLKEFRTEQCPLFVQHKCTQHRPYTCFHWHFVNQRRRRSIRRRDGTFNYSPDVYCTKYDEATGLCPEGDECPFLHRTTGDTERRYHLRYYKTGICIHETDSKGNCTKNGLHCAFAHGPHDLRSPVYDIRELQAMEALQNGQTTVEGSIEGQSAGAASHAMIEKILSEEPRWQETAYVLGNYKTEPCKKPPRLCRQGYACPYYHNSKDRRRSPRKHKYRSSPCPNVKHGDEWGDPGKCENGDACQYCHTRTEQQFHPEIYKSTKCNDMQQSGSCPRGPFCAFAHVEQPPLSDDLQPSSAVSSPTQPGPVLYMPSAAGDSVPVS
Method: RNA Bind-n-Seq
Molecule type: RNA
Sample: in vitro
Concentration: not given
Notes: RNA with constant flanks, human-mouse chimeric sites, ends assumed
Baseline: input RNA pool
Direction: higher = stronger binding
All sequences stand within: GGGAGUUCUACAGUCCGACGAUC … CAACAGAGGAUUGAGCAUCA
Strand | bound/input enrichment [ratio]
GGGGAGAAACCUUACGAGUGUGUGCAGUGUGGGAAAUCCUACAGUCAGAGCUCAAACCUUUUUAGACAUCAGAGACGACACAAUGCAGAAAAACUUCUGAAUGUUGUGAAGGUUUAAGAA | 0.181
CGCUGGCCCAAGCUGAUGGACUCUGAUGGCCUCCAUCUCUCAGGCACGUUUGCCUUCUCUUAGUUAUUGUUUUCGGGAUGUUAUGAAUCUCAGUACUGUGGUUUGAAAGCACCAGCUUUG | 7.06
UCAUUUUUCUCUUUUCUGAUCGUCAGGUAGGAAAAGCCUAAAGAUUAGUAAGAAAAGAAAACAGAAGCCAUGUUUCGAAGACCUGUGUUACAGGUAUUUCGUCAGUUUGUAAGACAUGAG | 1.68
AUGGAACAUUUCGAUGCGUCACUCAGUACCUAUUUCAAGGCAUUGCUGGGCCCCCGAGAUACAAGAGUCAAAGGAUGGUUCCUCCUGGACAAUUAUAUCCCUACGUUUGUCUGUUCUGUU | 0.119
AUGGAACAUUUCGAUGCGUCACUCAGUACCUAUUUCAAGGCAUUGCUGGGCCCCCGAGAUACAAGAGUCAAAGGAUGGUUCCUCCUGGACAAUUACAUCCCUACGUUUGUCUGUUCUGUU | 0.101
CUGGCCUGGCCCUCCCCAGGGGCCUCCUUUCGUAUAGUAACUGUCAGUGCAUCAGAUACUUUCAGCUGCAACUCCCUACUGGGUGGGGCACCCAUUUCAGGCAGAAGGUUUUGGUACCCU | 0.368
AGAUUCCCCCUCCUGAGACCUCCUCCGAAGUUGGAGUCUCUUAUAGAUGCCUCAUCCCCUGUUAGCGUUUUAGUUUGGACCACCCAGCCUUGGACAAUUCCAGCCAACCAGGCAAUUUGC | 2.19
ACACAAUAUGAGACCAACAGCAUGGACUUCAAAGUUGGGGCAGAUGGGACAGUCUUCGCCACUAGGGAGCUGCAGGUCCCCUCCGAGCAGGUGGCGUUCACGGUGACUGCGCGGGAAAGC | 0.25
UAUUUUUACAGCCACACCAAUCUUGGCAUGUAUUAAGGAAAAAAAAAAUCCCUGUUGAAGUAGUUUUUCCACCUAUCAGCACUGAGUAAAUGCCAUAACUCCGCGGAAAUGGUCUAAAUA | 0.202
UUUGUAUUUAUGCUAAGCACGCGUGCUGGUGGUCUGGGCAUCAAUCUUGCAACUGCUGAUGUAGUAAUUUUAUAUGACUCAGAUUGGAAUCCGCAAGUUGAUCUUCAGGCUAUGGACCGU | 0.407
ACCAUUUUCGCGGUUCAGGCUUUGUGUGUAGUUCACUUACGGUAUUAAAUUAUUAUUCUGCUUAGCUUAUAAUAAGGAUUACAAUUGUUAAAGAGGUUACUGAAUGUUACUCUGAAACUU | 0.738

Study 2
Target: ABI1, truncated, D143A, DHFR fusion (Arabidopsis thaliana)
Method: DHFR PCA, deep sequencing
Sample: yeast
Notes: methotrexate growth selection, single substitutions
Together with: (+)-ABA 0.11 µM
Baseline: wild-type fitted maximum
Direction: higher = stronger binding
Starting sequence: PYL1, truncated, DHFR fusion (Arabidopsis thaliana); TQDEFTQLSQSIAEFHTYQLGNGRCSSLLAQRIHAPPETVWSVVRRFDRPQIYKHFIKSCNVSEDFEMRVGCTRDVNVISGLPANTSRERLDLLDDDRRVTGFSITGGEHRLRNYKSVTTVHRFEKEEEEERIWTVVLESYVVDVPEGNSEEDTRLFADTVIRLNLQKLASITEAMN; partner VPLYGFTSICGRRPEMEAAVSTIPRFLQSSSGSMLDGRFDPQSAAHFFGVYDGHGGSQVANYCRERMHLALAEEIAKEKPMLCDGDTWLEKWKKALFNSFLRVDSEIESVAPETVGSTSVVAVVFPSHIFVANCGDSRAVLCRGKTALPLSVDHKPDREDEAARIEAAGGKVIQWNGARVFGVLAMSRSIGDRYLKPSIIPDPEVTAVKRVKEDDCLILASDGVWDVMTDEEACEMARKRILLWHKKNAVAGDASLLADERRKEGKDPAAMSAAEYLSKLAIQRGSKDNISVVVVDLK
Substitution | relative binding score
L93Y | 18.6%
E147K | 11%
Q2S | 30.4%
N165S | 7.99%
N114E | -6.07%
K58S | 8.43%
F66N | 0.526%
R111F | 0.287%
A13T | 26.1%
Q19E | 55.6%
R163H | 10.2%
G21L | 5.11%
E139N | -5.82%
R74D | 2.23%
H34L | 30.4%
F103C | -6.14%
D144P | -2.14%
V44R | 0.345%

Study 3
Target: Histone acetyltransferase KAT6A, both winged helices, GST fusion (KAT6A, Homo sapiens, UniProt Q92794, residues 1-181)
Method: protein binding microarray
Molecule type: double-stranded DNA, one strand shown
Sample: in vitro
Concentration: not given
Notes: 8-mer, flanks averaged, mean of 2 arrays, mostly near background
Baseline: not given
Direction: higher = stronger binding
Residues (chain): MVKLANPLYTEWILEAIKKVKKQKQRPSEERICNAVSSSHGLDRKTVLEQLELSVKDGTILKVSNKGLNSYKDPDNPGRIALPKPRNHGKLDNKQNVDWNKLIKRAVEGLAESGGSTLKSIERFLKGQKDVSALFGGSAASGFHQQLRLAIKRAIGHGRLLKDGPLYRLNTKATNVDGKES
Strand | E-score
ACTTTAAA | -0.0264
GTGACGTA | -0.0207
TCCACACA | -0.1
ACCCTGGA | -0.211
TATGAAAA | -0.00336
CATCCGCC | 0.175
CCACCCCA | -0.219
CATCCTGC | -0.0973
AACTCGCG | 0.257
AGTGGGCA | -0.166
GAGTCTGC | -0.122
GTTAGGAA | -0.104
CCGAATAA | 0.00187
ACAGGGCA | -0.196
CATTAGAC | 0.0757
AATATCTC | -0.0673
TAAGTCTA | -0.035
GAACAGTA | 0.0175

Study 4
Target: Probable WRKY transcription factor 33, N-terminal DNA-binding domain (WRKY33, Arabidopsis thaliana, UniProt Q8S8P5, residues 169-264)
Method: DNA-protein interaction ELISA
Molecule type: double-stranded DNA, one strand shown
Sample: in vitro, bacterial lysate
Concentration: not given
Notes: whole dsDNA probe, crude lysate protein
Baseline: highest signal in screen
Direction: higher = stronger binding
Target sequence (chain): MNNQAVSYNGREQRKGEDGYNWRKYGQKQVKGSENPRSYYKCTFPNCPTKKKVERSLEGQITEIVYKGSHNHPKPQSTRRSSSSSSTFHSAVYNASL
Strand | relative absorbance
AAAAAATTTGCTCTTTTGGTTTTCACAAAA | 24.4 % of maximum
AAAAAAGCTTCTCATGTTGTCTTAGGAAAA | 23.6 % of maximum
AAAAAAATCACGGTTCGACCTCCAGCAAAA | 15.1 % of maximum
AAAAAAAGTTCCAGGTCCGATGCTCAAAAA | 16.7 % of maximum
AAAAAACTGGATGCGCTCACCAGTTAAAAA | 19.8 % of maximum
AAAAAAGGCCACGGTAACCCCTTTTGAAAA | 21.7 % of maximum
AAAAAAATCAGCCTGACTCTGGGCGTAAAA | 23.5 % of maximum
AAAAAATTTCTATTTCATCTTTGCCCAAAA | 63.6 % of maximum
AAAAAATTAGACGCTACACTTACGGTAAAA | 20.5 % of maximum
AAAAAAATTTTTAGTTTTAATTTTGGAAAA | 30.4 % of maximum
AAAAAATCCATTCTTCGCGTTTATCCAAAA | 30.2 % of maximum
AAAAAACTCGACATAGAATGCGGAAAAAAA | 20.3 % of maximum
AAAAAACATAACCGCAAAATCCCTACAAAA | 18.4 % of maximum
AAAAAATTTGGTCTTCGTCCTCGCTTAAAA | 47.6 % of maximum

Study 5
Target: RNA binding protein fox-1 homolog 2, RRM domain, GST-SBP tag (RBFOX2, Homo sapiens, UniProt O43251-10, residues 100-194)
Method: RNA Bind-n-Seq
Molecule type: RNA
Sample: in vitro
Concentration: 365 nM
Notes: natural RNA segment, single round, ends assumed
Baseline: no-protein control
Direction: higher = stronger binding
All sequences stand within: GGGAGUUCUACAGUCCGACGAUC … UGGAAUUCUCGGGUGCCAA
Target sequence (chain): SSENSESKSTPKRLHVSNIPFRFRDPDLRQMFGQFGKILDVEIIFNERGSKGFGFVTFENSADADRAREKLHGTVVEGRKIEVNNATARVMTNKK
Strand | RBNS enrichment (R)
GCACUAUUGUCCCGGGGUUGACCCCUGGGGCAGUUCUUGGUGGGUUCUGCUGGGCAGAACACAUGGGUUAAAUCUGUGUAGAGAGUUUUCCUCAUCCUCCAUCCACAAGU | 0.246
CUGCUCAGCACCCCGCCUGGUGUGGGCCUGGUCUCAGCAGCGGCUGCGGCUGUGGCAGCCUCCAUCUCCAGCAAGUCUCCUGGCCUCUCCUCCUCAUCCUCUUCAUCCUC | 1.18
GUGCUGGUCCAUCGUGAGUAAGAAGUCGGACUCCCUGUUCCUAGGAAGCUGCUGUGCUUGUUGUUACUGAAUGUUGGAGUAGAUCCUGAUCUGUGAUUGCGGAUUUUCGG | 3.97
AUAAUACAUGUUCACUUUAUUUUGUAAAAUUGGGUUGAGAGGAAACUAAUGGAGUUUCAUUGUAACUGUCCUUUGUAAUUUAUAUAAAUGUAUUAUUUUCCUAUAUCCUU | 0.672
UUUGUAUAUAACACUUUCAGAGCCUUCCCACCCAUAGGUAGUUCUUAAACCAGGUGAAAGAGCAAAGUUCAAGUGCCUACUUAUGUGUCAUUCGCUCAUGUAAGAGUUUU | 0.21
UGAGAAAUUCUCAGUGAUUCUGCAAUGGAUUUUUUUUUAAUGCAGAAGUAAUGUAUACUCUAGUAUUCUGGUGUUUUUAUAUUUAUGUAAUAAUUUCUUAAAACCAUUCA | 0.516
UGGGUUUUUGUCAGAUCCAUGGUCUUAGGACUUGACUGAUGAGCUUUCAGUGAAGAAUCCUCUAAGAUAAAACUUCUAUUUAAAGACUUUAACUAGAAAGUGUUUAUUUU | 0.395
UUAGGAUGUCACUCCCAGGGUAAAGACCUCUGAUCACAGCAGGAGCAGAGCUGUGCAGCCUGGAUGGUCAUUGUCCCCUAUUCUGUGUGACCACAGCAACCCUGGUCACA | 0.697
CUCCCCCAAAUCGCCAUAUUUAAAAAUUAUUUUCACUCUAUUCUUGCUUAAAACUGUACUCUUUUGCAAAUUAACAAUUUUAUCACUGAUUCAGAGUUAAAAAGAAGACU | 0.572
AAAAAAAAAAAAAAAAAAAAAAAGAAAAACUGUGGAAGUAGCCAGCCUUGUACGACUGCAAAAGCAGCCUCGCUGACUGGAUUUUUUUUUUUUUUAAAGAUUUAUUUAUA | 1.14
UGUUUUGAUUGGAAGGCAGAUUAUUUUAUAUUAGUAUUAAAAAUCAAACCCUAUGUUUCUUUCAGAUGAAUCUUCCAAAGUGGAUUAUAUUAAGCAGGUAUUAGAUUUAG | 0.559
GAAGUCAGCCCCUGCCCAGAAGAUCUGAAACUAAUAGUAGGAGUUUCCCCAGAAGUCAUUUUCAGCCUUAAUUCUCAUCAUGUAUAAAUUAACAUAAAUCAUGCAUGUCU | 0.78

Excerpt of the above (study 2):
Substitution | relative binding score
E147K | 11%
E139N | -5.82%
R163H | 10.2%
H34L | 30.4%
G21L | 5.11%
D144P | -2.14%
N165S | 7.99%
N114E | -6.07%
K58S | 8.43%
L93Y | 18.6%
R111F | 0.287%
